# Assay results gathered from unrelated publications.
# Parts stem from different laboratories: compare values within a part only. Several values in a cell are separate wells, animals, samples, runs or records.
# Sequence of UniProt Q9NYY3 (whole entry, looked up): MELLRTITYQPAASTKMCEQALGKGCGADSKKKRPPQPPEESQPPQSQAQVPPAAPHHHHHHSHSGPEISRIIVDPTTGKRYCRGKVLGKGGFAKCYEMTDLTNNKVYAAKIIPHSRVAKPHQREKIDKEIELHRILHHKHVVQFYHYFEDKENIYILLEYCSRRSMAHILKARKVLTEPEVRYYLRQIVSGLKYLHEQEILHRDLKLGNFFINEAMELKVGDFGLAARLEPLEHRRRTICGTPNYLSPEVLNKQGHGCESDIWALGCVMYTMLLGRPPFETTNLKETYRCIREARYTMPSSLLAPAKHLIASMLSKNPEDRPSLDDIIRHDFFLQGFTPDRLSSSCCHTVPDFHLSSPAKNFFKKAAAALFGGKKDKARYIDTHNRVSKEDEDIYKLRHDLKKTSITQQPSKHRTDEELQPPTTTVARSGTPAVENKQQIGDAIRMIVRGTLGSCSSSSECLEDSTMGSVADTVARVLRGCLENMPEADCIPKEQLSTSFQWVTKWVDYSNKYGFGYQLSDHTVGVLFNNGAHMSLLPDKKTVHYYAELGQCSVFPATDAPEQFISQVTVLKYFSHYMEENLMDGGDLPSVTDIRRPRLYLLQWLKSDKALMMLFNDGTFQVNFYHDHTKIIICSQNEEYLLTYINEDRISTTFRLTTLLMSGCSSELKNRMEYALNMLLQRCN
# Sequence of UniProt Q7L7X3 (whole entry, looked up): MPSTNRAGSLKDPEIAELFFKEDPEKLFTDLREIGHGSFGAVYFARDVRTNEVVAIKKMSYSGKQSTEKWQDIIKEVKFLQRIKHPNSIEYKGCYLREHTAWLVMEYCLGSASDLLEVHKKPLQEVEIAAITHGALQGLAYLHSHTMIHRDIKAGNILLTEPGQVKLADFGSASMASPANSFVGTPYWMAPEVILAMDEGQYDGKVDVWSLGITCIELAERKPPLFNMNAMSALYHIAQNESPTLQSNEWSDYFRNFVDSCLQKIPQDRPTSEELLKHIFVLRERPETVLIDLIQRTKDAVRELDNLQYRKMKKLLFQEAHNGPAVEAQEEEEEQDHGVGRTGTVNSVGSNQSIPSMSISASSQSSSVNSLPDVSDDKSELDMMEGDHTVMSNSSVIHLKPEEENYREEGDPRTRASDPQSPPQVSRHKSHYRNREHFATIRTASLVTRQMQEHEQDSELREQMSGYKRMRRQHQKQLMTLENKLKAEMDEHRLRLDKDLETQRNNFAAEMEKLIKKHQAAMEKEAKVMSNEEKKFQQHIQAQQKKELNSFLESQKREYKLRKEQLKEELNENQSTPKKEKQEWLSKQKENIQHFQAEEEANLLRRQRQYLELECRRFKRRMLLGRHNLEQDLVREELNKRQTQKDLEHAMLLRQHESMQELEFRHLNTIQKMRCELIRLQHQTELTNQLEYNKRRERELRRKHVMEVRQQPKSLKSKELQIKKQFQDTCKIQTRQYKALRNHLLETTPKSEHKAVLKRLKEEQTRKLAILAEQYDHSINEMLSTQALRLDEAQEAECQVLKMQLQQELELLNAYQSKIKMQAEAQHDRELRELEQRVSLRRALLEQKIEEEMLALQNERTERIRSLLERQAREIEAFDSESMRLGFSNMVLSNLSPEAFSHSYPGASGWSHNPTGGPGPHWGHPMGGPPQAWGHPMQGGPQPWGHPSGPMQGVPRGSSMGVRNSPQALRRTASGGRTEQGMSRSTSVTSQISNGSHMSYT
# Sequence of UniProt P06493 (whole entry, looked up): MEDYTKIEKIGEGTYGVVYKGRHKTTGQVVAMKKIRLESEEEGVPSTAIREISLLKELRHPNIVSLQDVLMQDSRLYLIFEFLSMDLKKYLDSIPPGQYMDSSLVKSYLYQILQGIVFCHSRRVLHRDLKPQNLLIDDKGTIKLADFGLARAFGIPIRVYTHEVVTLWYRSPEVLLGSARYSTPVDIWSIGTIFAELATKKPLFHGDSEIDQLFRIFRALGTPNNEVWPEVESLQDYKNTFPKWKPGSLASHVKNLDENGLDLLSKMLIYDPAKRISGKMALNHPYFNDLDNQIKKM
# Sequence of UniProt Q96L34 (whole entry, looked up): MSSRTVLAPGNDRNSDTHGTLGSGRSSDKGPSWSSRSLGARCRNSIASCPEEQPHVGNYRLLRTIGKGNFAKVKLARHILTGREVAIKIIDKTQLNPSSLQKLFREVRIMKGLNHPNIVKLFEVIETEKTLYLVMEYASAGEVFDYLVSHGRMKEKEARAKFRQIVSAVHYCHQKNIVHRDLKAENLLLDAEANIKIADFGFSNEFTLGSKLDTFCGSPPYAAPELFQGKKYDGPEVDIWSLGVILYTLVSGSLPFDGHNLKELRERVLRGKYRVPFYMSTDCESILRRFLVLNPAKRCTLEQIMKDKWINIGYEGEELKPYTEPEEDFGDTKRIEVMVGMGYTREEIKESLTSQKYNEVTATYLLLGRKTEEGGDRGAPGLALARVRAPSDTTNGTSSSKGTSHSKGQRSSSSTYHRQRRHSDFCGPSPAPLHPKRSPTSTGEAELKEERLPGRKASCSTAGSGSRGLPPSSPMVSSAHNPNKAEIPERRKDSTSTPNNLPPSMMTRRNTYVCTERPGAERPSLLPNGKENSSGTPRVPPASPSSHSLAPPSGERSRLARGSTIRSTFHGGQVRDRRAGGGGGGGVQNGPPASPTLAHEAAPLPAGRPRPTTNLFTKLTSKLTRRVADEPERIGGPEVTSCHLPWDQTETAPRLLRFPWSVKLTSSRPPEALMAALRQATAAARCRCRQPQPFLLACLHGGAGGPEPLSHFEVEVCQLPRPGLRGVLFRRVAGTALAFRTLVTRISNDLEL
# Sequence of UniProt Q8N4C8 (whole entry, looked up): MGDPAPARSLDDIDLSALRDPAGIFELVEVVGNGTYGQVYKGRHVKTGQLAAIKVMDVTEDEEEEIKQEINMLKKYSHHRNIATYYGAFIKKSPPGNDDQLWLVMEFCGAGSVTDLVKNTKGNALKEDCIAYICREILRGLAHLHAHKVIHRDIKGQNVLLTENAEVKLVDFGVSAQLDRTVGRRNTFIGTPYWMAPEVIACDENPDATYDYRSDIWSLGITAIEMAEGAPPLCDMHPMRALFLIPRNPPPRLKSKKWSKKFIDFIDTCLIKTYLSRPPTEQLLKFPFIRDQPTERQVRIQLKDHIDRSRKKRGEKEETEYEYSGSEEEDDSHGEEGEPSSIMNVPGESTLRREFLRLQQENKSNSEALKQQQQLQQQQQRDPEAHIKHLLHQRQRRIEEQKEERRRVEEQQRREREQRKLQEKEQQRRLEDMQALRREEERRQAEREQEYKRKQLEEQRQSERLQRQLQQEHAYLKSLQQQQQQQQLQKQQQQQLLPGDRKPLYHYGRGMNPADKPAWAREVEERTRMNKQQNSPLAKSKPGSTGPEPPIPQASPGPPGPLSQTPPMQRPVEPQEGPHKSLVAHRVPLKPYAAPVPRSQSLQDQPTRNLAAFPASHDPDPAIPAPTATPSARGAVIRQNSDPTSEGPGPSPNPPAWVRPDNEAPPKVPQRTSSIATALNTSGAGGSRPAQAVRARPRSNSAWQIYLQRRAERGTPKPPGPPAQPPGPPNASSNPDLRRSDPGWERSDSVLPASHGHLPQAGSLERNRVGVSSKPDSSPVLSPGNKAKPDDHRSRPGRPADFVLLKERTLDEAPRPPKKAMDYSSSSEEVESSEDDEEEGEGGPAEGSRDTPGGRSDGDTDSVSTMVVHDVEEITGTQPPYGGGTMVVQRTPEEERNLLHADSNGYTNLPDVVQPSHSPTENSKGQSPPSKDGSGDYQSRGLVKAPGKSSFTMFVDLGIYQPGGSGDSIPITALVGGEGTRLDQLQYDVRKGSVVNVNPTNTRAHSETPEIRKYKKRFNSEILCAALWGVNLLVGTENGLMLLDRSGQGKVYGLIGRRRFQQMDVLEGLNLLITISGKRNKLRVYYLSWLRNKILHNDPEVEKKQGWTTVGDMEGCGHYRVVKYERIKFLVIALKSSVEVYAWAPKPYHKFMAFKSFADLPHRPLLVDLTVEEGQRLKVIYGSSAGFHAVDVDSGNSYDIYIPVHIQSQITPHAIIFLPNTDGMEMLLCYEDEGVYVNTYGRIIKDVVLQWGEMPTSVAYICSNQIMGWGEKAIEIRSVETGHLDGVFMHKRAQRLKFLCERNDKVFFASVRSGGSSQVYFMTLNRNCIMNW

# Block 1 — effect on: enzyme activity; mode: inhibitor; tested at: 0.5 µM; reference: control
# Compound: O=C1Nc2ccc(Br)cc2/C1=C/c1cc2c([nH]1)CCCC2
target,remaining activity [%]
"MAP/microtubule affinity-regulating kinase 4 (MARK4, Homo sapiens, UniProt Q96L34)",82.9
"Discoidin domain-containing receptor 2 (DDR2, Homo sapiens, UniProt Q16832)",101
"Cyclin-dependent kinase 1, with cyclin A (CDK1, Homo sapiens, UniProt P06493)",96.3
"Misshapen-like kinase 1 (MINK1, Homo sapiens, UniProt Q8N4C8)",26.4
"Myosin-IIIb (MYO3B, Homo sapiens, UniProt Q8WXR4)",55.1
"cGMP-dependent protein kinase 2 (PRKG2, Homo sapiens, UniProt Q13237)",92.4
"Hepatocyte growth factor receptor (MET, Homo sapiens, UniProt P08581)",81.6
"G protein-coupled receptor kinase 4 (GRK4, Homo sapiens, UniProt P32298)",101
"Mitogen-activated protein kinase 1 (MAPK1, Homo sapiens, UniProt P28482)",103
"Calcium/calmodulin-dependent protein kinase type IV (CAMK4, Homo sapiens, UniProt Q16566)",97.5
"Dual specificity protein kinase CLK3 (CLK3, Homo sapiens, UniProt P49761)",101
"Serine/threonine-protein kinase PAK 3 (PAK3, Homo sapiens, UniProt O75914)",96.4
"RAC-beta serine/threonine-protein kinase (AKT2, Homo sapiens, UniProt P31751)",90.3
"Serine/threonine-protein kinase MRCK beta (CDC42BPB, Homo sapiens, UniProt Q9Y5S2)",114

# Block 2 — effect on: RNA clamping; method: fluorescence polarization; tested at: concentration not given; notes: mean of two replicates; with: FAM-labelled poly r(AG)8 RNA
# Target: Eukaryotic initiation factor 4A-I (EIF4A1, Homo sapiens, UniProt P60842)
# Sequence of UniProt P60842 (whole entry, looked up): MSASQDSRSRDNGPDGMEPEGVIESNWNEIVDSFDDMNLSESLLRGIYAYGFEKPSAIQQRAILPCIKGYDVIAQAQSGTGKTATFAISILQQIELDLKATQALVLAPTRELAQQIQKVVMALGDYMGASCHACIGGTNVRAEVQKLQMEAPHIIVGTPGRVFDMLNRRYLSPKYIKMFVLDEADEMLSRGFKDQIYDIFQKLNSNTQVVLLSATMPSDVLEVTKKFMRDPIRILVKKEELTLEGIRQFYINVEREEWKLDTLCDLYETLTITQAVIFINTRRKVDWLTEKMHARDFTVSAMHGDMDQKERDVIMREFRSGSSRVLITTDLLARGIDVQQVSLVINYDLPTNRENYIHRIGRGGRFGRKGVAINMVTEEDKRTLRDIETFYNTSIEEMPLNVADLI
Compound,fluorescence polarization change
C#CCNC(=O)CCCn1c(-c2ccccc2)nc2c(c1=O)[C@@H](c1ccccc1)[C@]1(c3ccc(OC)cc3)Oc3cc(OC)cc(OC)c3[C@]21O,22.4 mP
COc1ccc([C@@]23Oc4cc(OC)cc(OC)c4[C@]2(O)[C@H](O)[C@H](CO)[C@H]3c2ccccc2)cc1,53.5 mP
COc1ccc([C@@]23Oc4cc(O)cc(OC)c4[C@]2(O)c2nc4n(c(=O)c2[C@H]3c2ccccc2)CCC4)cc1,36.3 mP
COC(=O)[C@H]1[C@@H](O)[C@@]2(O)c3c(OC)cccc3N(C)[C@@]2(c2ccc(Br)cc2)[C@@H]1c1ccccc1,3.2 mP
COc1ccc([C@@]23Oc4cc(OC)cc(OC)c4[C@]2(O)c2nc(N4CCOCC4)[nH]c(=O)c2[C@H]3c2ccccc2)cc1,49.6 mP and 58.3 mP
COc1ccc([C@@]23Oc4cc(OC)cc(OC)c4[C@]2(O)[C@H](O)[C@H](C(=O)c2cc4cccc(OC)c4o2)[C@H]3c2ccccc2)cc1,5.7 mP
COc1ccc([C@@]23Oc4cc(OC)cc(OC)c4[C@]2(O)[C@H](O)[C@H](C(=O)c2cc4ccccc4o2)[C@H]3c2ccccc2)cc1,14.1 mP
COc1ccc([C@@]23Oc4cc(OC)cc(OC)c4[C@@]24NC(C)=N[C@@]4(O)[C@H](C(C)=O)[C@H]3c2ccccc2)cc1,60.7 mP
COC(=O)[C@H]1C(=O)[C@@]2(NCc3nccn3C)c3c(OC)cc(OC)cc3O[C@@]2(c2ccc(OC)cc2)[C@@H]1c1ccccc1,-1.6 mP
COC(=O)[C@@H]1[C@@H](c2ccccc2)[C@]2(c3ccc(OC)cc3)Oc3cc(OC)cc(OC)c3[C@@]23NC(CCl)=N[C@@]13O,23.3 mP
CONC(=O)[C@H]1[C@@H](O)[C@@]2(O)c3c(OC)cc(F)cc3O[C@@]2(c2ccc(Br)cc2)[C@@H]1c1ccccc1,81.2 mP
COC(=O)[C@H]1[C@@H](O)[C@@]2(O)c3c(OC)cc(OCc4ccccc4)cc3O[C@@]2(c2ccc(OC)cc2)[C@@H]1c1ccccc1,12.1 mP
COc1ccc([C@]23[C@H](c4ccccc4)C[C@@H](O)[C@@]2(O)c2c(OC)cccc2N3C)cc1,3.5 mP

# Block 3 — method: competition with immobilised ligand; tested at: 1 µM
# Compound: Cn1nc(C(F)(F)F)cc1-c1cnc(N2CCc3cc(S(=O)(=O)Nc4c(F)cc(Cl)cc4F)cc(N4CCCC4=O)c32)nc1
target,effect on,remaining binding
"Myosin light chain kinase, smooth muscle (MYLK, Homo sapiens, UniProt Q15746)",cell-free assay,100%
"Serine/threonine-protein kinase PLK2 (PLK2, Homo sapiens, UniProt Q9NYY3)",cell-free assay,91%
"Tyrosine-protein kinase ABL1, phosphorylated (ABL1, Homo sapiens, UniProt P00519, M351T)",cell-free assay,92%
"Epidermal growth factor receptor (EGFR, Homo sapiens, UniProt P00533, L861Q)",cell-free assay,100%
"Serine/threonine-protein kinase ICK (CILK1, Homo sapiens, UniProt Q9UPZ9)",binding,84%
"Serine/threonine-protein kinase 4 (STK4, Homo sapiens, UniProt Q13043)",cell-free assay,92%
"Dual specificity protein kinase CLK4 (CLK4, Homo sapiens, UniProt Q9HAZ1)",cell-free assay,90%
"Serine/threonine-protein kinase TAO1 (TAOK1, Homo sapiens, UniProt Q7L7X3)",cell-free assay,99%
"Dual specificity mitogen-activated protein kinase kinase 7 (MAP2K7, Homo sapiens, UniProt O14733)",cell-free assay,98%

# Block 4 — effect on: enzyme activity; mode: inhibitor; tested at: 10 µM
# Target: Calcium/calmodulin-dependent protein kinase type II subunit alpha (CAMK2A, Homo sapiens, UniProt Q9UQM7)
# Sequence of UniProt Q9UQM7 (whole entry, looked up): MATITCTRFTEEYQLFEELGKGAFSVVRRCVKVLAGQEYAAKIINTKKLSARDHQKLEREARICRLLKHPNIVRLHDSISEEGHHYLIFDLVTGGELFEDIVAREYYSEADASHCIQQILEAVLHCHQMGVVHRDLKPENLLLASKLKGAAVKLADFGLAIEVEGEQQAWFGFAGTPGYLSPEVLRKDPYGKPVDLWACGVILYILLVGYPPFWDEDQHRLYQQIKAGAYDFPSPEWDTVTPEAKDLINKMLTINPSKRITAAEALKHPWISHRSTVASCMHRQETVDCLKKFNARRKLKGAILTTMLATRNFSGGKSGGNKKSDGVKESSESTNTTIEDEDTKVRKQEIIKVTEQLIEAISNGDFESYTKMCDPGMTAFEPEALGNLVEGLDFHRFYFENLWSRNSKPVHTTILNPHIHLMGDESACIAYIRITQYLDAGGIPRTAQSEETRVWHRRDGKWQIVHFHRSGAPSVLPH
SMILES,inhibition
O=c1ccn([C@@H]2O[C@H](CO)[C@@H](O)[C@H]2O)c(=O)[nH]1,12%
COc1ccc(OC)cc1,19%
O=[N+]([O-])c1ccc(O)c2ncccc12,-15%
C=C1C(=O)O[C@H]2C[C@@H](C)[C@@H]3[C@@H](OC(C)=O)C[C@H](O)[C@@]3(C)[C@@H](OC(C)=O)[C@H]12,-14%
O=C(O)C1=CCCNC1,1%
O=Cc1ccccc1O[C@@H]1O[C@H](CO)[C@@H](O)[C@H](O)[C@H]1O,-28%
CC(C)(O)[C@@H]1Cc2c(cc3oc(CO)cc(=O)c3c2O)O1,-10%
CC(=O)CCc1ccccc1,-63%
CO/N=C(\C(=O)N[C@@H]1C(=O)N2C(C(=O)OCOC(=O)C(C)(C)C)=C(/C=C\c3scnc3C)CS[C@H]12)c1csc(N)n1,-1%
O=C(O)c1ccc2ccccc2n1,15%
CNc1ccccc1C(=O)OC,-19%

# A few entries again (block 3):
target,effect on,remaining binding
"Tyrosine-protein kinase ABL1, phosphorylated (ABL1, Homo sapiens, UniProt P00519, M351T)",cell-free assay,92%
"Epidermal growth factor receptor (EGFR, Homo sapiens, UniProt P00533, L861Q)",cell-free assay,100%
"Serine/threonine-protein kinase ICK (CILK1, Homo sapiens, UniProt Q9UPZ9)",binding,84%
"Serine/threonine-protein kinase 4 (STK4, Homo sapiens, UniProt Q13043)",cell-free assay,92%
"Dual specificity protein kinase CLK4 (CLK4, Homo sapiens, UniProt Q9HAZ1)",cell-free assay,90%
